Published values gathered from unrelated publications.
Parts stem from different laboratories: compare values within a part only.

Study 1 — technique: RNA Bind-n-Seq; form: RNA; sample: in vitro; concentration: not given; relative to: input RNA pool; direction: higher = stronger binding
Target: RING finger protein unkempt homolog, zinc fingers 1-6, GST-SBP tag (UNK, Homo sapiens, UniProt Q9C0B0, residues 30-357)
UniProt Q9C0B0, sequence (30-357, looked up): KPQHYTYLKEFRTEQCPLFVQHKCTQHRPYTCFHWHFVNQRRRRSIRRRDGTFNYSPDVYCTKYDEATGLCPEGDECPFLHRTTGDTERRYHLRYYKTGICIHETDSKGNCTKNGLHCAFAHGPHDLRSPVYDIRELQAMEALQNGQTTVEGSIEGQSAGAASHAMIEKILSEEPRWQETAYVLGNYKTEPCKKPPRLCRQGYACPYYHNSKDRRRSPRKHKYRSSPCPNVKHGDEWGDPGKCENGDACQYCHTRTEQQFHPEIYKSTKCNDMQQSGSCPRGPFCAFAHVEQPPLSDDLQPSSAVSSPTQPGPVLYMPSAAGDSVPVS
Notes: RNA with constant flanks, human and mouse sites, ends assumed
Sequence	bound/input enrichment
GGGAGUUCUACAGUCCGACGAUCAUGGGUGGAUUAUUUUCUCGAUGGAGGGCAAAACCUUCAACAGUAGAAGUUCUAGAAAAUAUAGAUAAGGAAAUUCAAGCAUUGGAAGAAUUUAGAGAAAAAAAUCAGAGAUUGCAAAAACAACAGAGGAUUGAGCAUCA	7.58 ratio
GGGAGUUCUACAGUCCGACGAUCCUGAGACUUUCAAGCCGGCCGCGUCUCCUUCCUCCCCCUUCCCUCCCCCUUUUUUGUUUUCCGUUCCCCUUCCCCCUCCCUUCCCCGUCCCCGACGACCGGAUCCAGAGGAGGCAGCUGCCAACAGAGGAUUGAGCAUCA	1.32 ratio
GGGAGUUCUACAGUCCGACGAUCUAUAAUAAUCAUGAAAUUCGUUCUGGAAAACAUAUUGGUGUCUGCAUCUCAGUUGCCAACAAUAGGCUUUUUGUGGGCUCUAUUCCUAAGAGUAAAACCAAGGAACAGAUUCUUGAAGAACAACAGAGGAUUGAGCAUCA	1.25 ratio
GGGAGUUCUACAGUCCGACGAUCAAGACACCACCUAGUAAUCUCUCUCCCAUUGAAGAUGCAUCUCCGACAGAAGAGUUACGUCAGGCUGCAGAAAUGGAGGAGCUCCAUAGAUCUUCUUGUUCUGAAUAUUCACCUAGCAUACAACAGAGGAUUGAGCAUCA	2.19 ratio

Study 2 — technique: protein-binding microarray; form: double-stranded DNA, one strand shown; sample: in vitro; concentration: 2540 nM top; notes: 60-bp whole probe; added: salmon DNA 0.4 mg/ml; relative to: random background probes; direction: higher = stronger binding
Target: Interferon regulatory factor 3, full length, phosphomimetic (IRF3, Homo sapiens, UniProt Q14653, residues 1-427, S386D/S396D/S398D/S402D/T404D/S405D)
Residues (chain): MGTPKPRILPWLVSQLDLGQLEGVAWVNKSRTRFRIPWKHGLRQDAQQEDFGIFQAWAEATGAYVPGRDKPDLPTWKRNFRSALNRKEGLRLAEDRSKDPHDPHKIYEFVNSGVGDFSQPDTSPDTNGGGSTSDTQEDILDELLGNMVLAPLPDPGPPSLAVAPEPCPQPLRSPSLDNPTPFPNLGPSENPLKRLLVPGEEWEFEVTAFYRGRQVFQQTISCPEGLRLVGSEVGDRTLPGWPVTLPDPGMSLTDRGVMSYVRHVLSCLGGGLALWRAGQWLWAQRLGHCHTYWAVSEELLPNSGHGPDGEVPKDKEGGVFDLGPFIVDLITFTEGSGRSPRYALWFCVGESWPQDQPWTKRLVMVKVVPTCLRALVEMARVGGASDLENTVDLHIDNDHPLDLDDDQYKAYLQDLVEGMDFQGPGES
Sequence	fitted relative affinity [z-score]
GCCTAGCACGACGGACTGGGTTTAGGGACGTGCTAGGTCTTGATTCGCTTGACGCTGCTG	-0.724
GCCTAGCACTCAGATTTATCAAATGTGACTGTGCTAGTCTTGATTCGCTTGACGCTGCTG	0.115
GCCTAGCACGATGGACTGGACTATCGGGACGTGCTAGTCTTGATTCGCTTGACGCTGCTG	-0.676
GCCTAGCACATAGGTTTCGGTATCGGTTAGTGCTAGGTCTTGATTCGCTTGACGCTGCTG	9.42

Study 3 — technique: aptamer microarray, sandwich; form: DNA with 2'F-ANA; sample: in vitro; concentration: 200 nM; added: Cy3 exosite-II aptamer, 400 nM; direction: higher = stronger binding; sequence: GGTTGGTGTGGTTGG
Target: Prothrombin, mature alpha-thrombin (F2, Homo sapiens, UniProt P00734)
Notes: whole 15-mer aptamer, many near background
Modification	mean fluorescence intensity
2'F-ANA at 3 6 13	768 a.u.
2'F-ANA at 1 3 5 9 10 11 12 15	59.1 a.u.
2'F-ANA at 5 6 7 10 12 13	46.2 a.u.
2'F-ANA at 1 2 6 7 12 13	295 a.u.
2'F-ANA at 4 5 6 8 10 12 14 15	69.7 a.u.
2'F-ANA at 1 3 8 9 11 12	537 a.u.

Mixed results
Substance	target	test	system	conditions	scale	endpoint	value
PhoQ, residues 284 288 289 292 302 303 TYGVAM	PhoP, residues 12 14 15 18 19 NQAHL (Escherichia coli, UniProt P23836)	Sort-seq, item: YFP reporter	E. coli	PhoQ-PhoP variant library, added: 10 µM Mg2+	relative to: high Mg2+ state, higher = stronger signaling	fold induction	2.65
